Published values of several laboratories.
Parts stem from different laboratories: compare values within a part only.

Study 1
Target: RING finger protein unkempt homolog, zinc fingers 1-6, GST-SBP tag (UNK, Homo sapiens, UniProt Q9C0B0, residues 30-357)
Sequence of UniProt Q9C0B0 (30-357, looked up): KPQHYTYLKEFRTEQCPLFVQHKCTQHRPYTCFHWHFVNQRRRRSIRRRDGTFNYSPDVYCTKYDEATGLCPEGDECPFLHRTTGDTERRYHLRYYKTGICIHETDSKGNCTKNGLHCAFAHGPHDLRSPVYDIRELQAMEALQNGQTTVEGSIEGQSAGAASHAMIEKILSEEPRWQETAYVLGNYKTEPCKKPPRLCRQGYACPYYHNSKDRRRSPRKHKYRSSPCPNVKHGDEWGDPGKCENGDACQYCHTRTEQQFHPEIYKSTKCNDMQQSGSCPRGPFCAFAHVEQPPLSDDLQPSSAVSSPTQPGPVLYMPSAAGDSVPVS
Method: RNA Bind-n-Seq
Molecule type: RNA
Matrix: in vitro
Concentration: not given
Setting: RNA with constant flanks, human-mouse chimeric sites, ends assumed
Reference: input RNA pool
Direction: higher = stronger binding
With `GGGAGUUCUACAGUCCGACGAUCAUAAAGGCUAUGUUGAGUGGCCCAGGUCAGUUUGCUGAGAAUGAAACCAACGAGGUCAAUUUUAGAGAGAUCCCCUCACAUGUGCUAUCAAAAGUGUGCAUGUAUUUUACCUACAAGGUCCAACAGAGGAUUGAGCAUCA` the bound/input enrichment was 0.158 ratio.
For `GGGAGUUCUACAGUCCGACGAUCGAUCAUGGAACCAGAAUAGAAAUGAAGAUGAGAUUACCCAGACGAGCCAAAACAGCUGCGCUACAGAAAAGUAAACUUUAACCUUGCGAGUUCCUUAAUGAAGAUACAAGUUAAGAGAGCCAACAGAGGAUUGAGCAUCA`, the bound/input enrichment was 0.521 ratio.
`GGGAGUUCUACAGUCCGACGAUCUCAGGAACCCAGACAAACAUGAAUGUAAAUGAAGUCAUUAGCAACAGAGCAAUUGAAAUGUUAGGAGGUGAACUUGGCAGCAAGAAGCCUGUGCAUCCCAAUGAUCAUGUUAACAAAAGCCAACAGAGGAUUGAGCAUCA` has a bound/input enrichment of 0.262 ratio.
`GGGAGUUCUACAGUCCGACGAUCGAUAAGAAAAGCUUGUUGGAGACCCGCUUGCAUGUCACUGGUAGAGAACUGAGGUCCCAAAUAGCUGAAACUUUCGGACUUCAAGAAAAUUACAUCAAGAUCGUAAUAAAUAAGAAACAGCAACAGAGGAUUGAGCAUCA` has a bound/input enrichment of 0.348 ratio.
`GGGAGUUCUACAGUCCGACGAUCUGGCGCCUGCGCUCCCCACUCGUGUUUUUAAGUGUAUUUUUAUAAGACAUGUGUAUUUACAAUUGAGCUUUUGUUACAUAAUGCUGAAAUGCUACUGCAAUAUUAUGAAAAUGUUUCAAUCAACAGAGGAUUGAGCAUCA` has a bound/input enrichment of 0.13 ratio.
For `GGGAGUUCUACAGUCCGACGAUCUUUCUACUGCAGCAAACGAUGCUAAGAAUUAAGGAUCCUAAGAAGUCCCUGGAUUUUUAUACGAGGGUUCUUGGACUGACGCUAAUCCAGAAGCUUGAUUUUCCCAUUAUGAAGUUCUCGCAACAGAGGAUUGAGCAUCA`, the bound/input enrichment was 0.121 ratio.
The bound/input enrichment of `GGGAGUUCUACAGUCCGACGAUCGUGACAGACAUUAAAAUUUCCCCUCAGCAAAGAAGUGCAGUAGUCACCAUAAUUCCAUCUGUGGUGAGUGCCAGUCAGAUUGUGGAGCUGGUCCCAGACCUCAGUUUAGACAUGGGAACUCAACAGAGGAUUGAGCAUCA` is reported as 0.283 ratio.
With `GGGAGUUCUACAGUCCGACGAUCAGAGAUAAGACAUCCAGGAACAUGCGAGGGUCACGGAUGAAUGGACUGCCUAGCCCCACUCACAGCGCCCACUGUAGCUUCUACCGAACCAGAACCUUGCAGGCACUGAGUAAUGAGAAGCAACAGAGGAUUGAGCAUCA` the bound/input enrichment was 0.173 ratio.

Study 2
Target: Interferon regulatory factor 3, full length, phosphomimetic (IRF3, Homo sapiens, UniProt Q14653, residues 1-427, S386D/S396D/S398D/S402D/T404D/S405D)
Method: protein-binding microarray
Molecule type: double-stranded DNA, one strand shown
Matrix: in vitro
Concentration: 2540 nM top
Setting: 60-bp whole probe
With: salmon DNA 0.4 mg/ml
Reference: random background probes
Direction: higher = stronger binding
Shared flanks, not repeated: GCCTAGCAC … GTCTTGATTCGCTTGACGCTGCTG
Residues (chain): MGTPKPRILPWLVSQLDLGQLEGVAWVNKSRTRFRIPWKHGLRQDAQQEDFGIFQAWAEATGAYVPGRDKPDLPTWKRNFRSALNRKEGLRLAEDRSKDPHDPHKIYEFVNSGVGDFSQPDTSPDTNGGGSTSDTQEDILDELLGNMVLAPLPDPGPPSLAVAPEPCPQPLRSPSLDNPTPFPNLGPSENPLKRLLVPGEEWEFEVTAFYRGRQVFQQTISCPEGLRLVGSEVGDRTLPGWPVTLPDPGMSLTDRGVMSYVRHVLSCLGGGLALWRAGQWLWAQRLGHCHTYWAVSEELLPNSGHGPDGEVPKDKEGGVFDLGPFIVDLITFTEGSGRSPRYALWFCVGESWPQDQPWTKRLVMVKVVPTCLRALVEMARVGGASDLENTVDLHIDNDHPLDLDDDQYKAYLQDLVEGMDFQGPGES
`TATTTTCTGAATGTCTTCCCGTGCTAG` — result for “fitted relative affinity”: 2.21 z-score.
`GACGGTTTCGGGTTTCAGGACGTGCTA` — result for “fitted relative affinity”: 5.74 z-score.
For `GACTGACTGGGTCTCGGGACGTGCTAG`, “fitted relative affinity” read -0.749 z-score.
`TTAGGACTGGGTATCGATTAGTGCTAG`: “fitted relative affinity” -0.0446 z-score.
`GACGGTATCGGTATCGAGACGTGCTAG` — result for “fitted relative affinity”: 4.26 z-score.
`TTAGGTATTGGTATCGGTTAGTGCTAG`: “fitted relative affinity” 2.56 z-score.
`TCAACTTTAGGTTCCCAACTGTGCTAG`: “fitted relative affinity” 2.15 z-score.
`AGTATGTTCCCTATTTAAGAGTGCTAG` — result for “fitted relative affinity”: 3.07 z-score.
`TCAATTGTGGCTTTTTAACTGTGCTAG`: “fitted relative affinity” 0.22 z-score.
Under “fitted relative affinity”, `GACGGACTGGGGACTGGGTACGTGCTA` is recorded as -0.899 z-score.
Under “fitted relative affinity”, `GACGGGATCCTTTTCCTGACGTGCTAG` is recorded as 5.37 z-score.
`TTTACTTTCTATCTCTGTTTGTGCTAG` — result for “fitted relative affinity”: 5.49 z-score.
`GACGATTTCAGACTGTAGACGTGCTAG`: “fitted relative affinity” 1.09 z-score.
Under “fitted relative affinity”, `GACGATATCATACTGGAGACGTGCTAG` is recorded as 0.376 z-score.
`CACGGTCTCCTTCTCCTGACGTGCTAG`: “fitted relative affinity” 3.97 z-score.
`TTAGATAACAGTATCGATTAGTGCTAG` — result for “fitted relative affinity”: 0.744 z-score.
`CTAGTTGTGATTCTTTCGATGTGCTAG`: “fitted relative affinity” 1.7 z-score.
Under “fitted relative affinity”, `TCACCTCTTTCACTGGTACTGTGCTAG` is recorded as 1.14 z-score.
For `TCATTGATGGCTCTCTGACTGTGCTAG`, “fitted relative affinity” read -0.869 z-score.

Study 3
Target: Prothrombin, mature alpha-thrombin (F2, Homo sapiens, UniProt P00734)
Method: aptamer microarray, sandwich
Molecule type: DNA with 2'F-ANA
Matrix: in vitro
Concentration: 200 nM
Setting: whole 15-mer aptamer, many near background
With: Cy3 exosite-II aptamer, 400 nM
Direction: higher = stronger binding
Sequence: GGTTGGTGTGGTTGG
`2'F-ANA at 1 2 4 7 8 10 14 15` — result for “mean fluorescence intensity”: 57.6 a.u.
Under “mean fluorescence intensity”, `2'F-ANA at 1 2 3 4 5 6 8 10 15` is recorded as 239 a.u.
`2'F-ANA at 1 3 5 6 8 12 15`: “mean fluorescence intensity” 137 a.u.
`2'F-ANA at 1 3 5` — result for “mean fluorescence intensity”: 60.4 a.u.
For `2'F-ANA at 1 2 3 6 7 8 11 13`, “mean fluorescence intensity” read 187 a.u.
`2'F-ANA at 1 3 5 7 8 9 11 12 13 14`: “mean fluorescence intensity” 45.8 a.u.
`2'F-ANA at 1 5 6 7 8 10 11`: “mean fluorescence intensity” 49.9 a.u.
`2'F-ANA at 1 2 3 4 8 11 12 14 15`: “mean fluorescence intensity” 80 a.u.
For `2'F-ANA at 1 4 5 6 7 8 15`, “mean fluorescence intensity” read 121 a.u.
For `2'F-ANA at 1 2 6 9 12 13 14`, “mean fluorescence intensity” read 58.5 a.u.
For `2'F-ANA at 1 2 3 7 9 10 14`, “mean fluorescence intensity” read 57.2 a.u.
Under “mean fluorescence intensity”, `2'F-ANA at 1 2 3 6 8 11 13 14 15` is recorded as 69.7 a.u.
`2'F-ANA at 2 5 7 10 13 14 15` — result for “mean fluorescence intensity”: 43.9 a.u.
For `2'F-ANA at 1 3 4 6 8 13 14`, “mean fluorescence intensity” read 69.2 a.u.
Under “mean fluorescence intensity”, `2'F-ANA at 7 10 14` is recorded as 142 a.u.
`2'F-ANA at 1 3 5 6 7 12 15` — result for “mean fluorescence intensity”: 129 a.u.
`2'F-ANA at 1 3 4 6 8 10 11 12`: “mean fluorescence intensity” 70.7 a.u.
For `2'F-ANA at 1 2 3 4 5 8 9 10 11 12`, “mean fluorescence intensity” read 51.4 a.u.
For `2'F-ANA at 3 4 5 7 10 12 14 15`, “mean fluorescence intensity” read 47.5 a.u.
`2'F-ANA at 2 3 4 6 9 10 11`: “mean fluorescence intensity” 190 a.u.
For `2'F-ANA at 1 2 5 8 9 10 11 12 14`, “mean fluorescence intensity” read 45.3 a.u.
For `2'F-ANA at 1 4 5 6 11 12 13 14 15`, “mean fluorescence intensity” read 61 a.u.
For `2'F-ANA at 2 3 8 9 10 14`, “mean fluorescence intensity” read 314 a.u.
`2'F-ANA at 1 2 3 4 5 6 7 9 10 13` — result for “mean fluorescence intensity”: 47.7 a.u.
Under “mean fluorescence intensity”, `2'F-ANA at 3 6 7 9 13 14 15` is recorded as 436 a.u.

Study 4
Target: RNA binding protein fox-1 homolog 2, RRM domain, GST-SBP tag (RBFOX2, Homo sapiens, UniProt O43251-10, residues 100-194)
Method: RNA Bind-n-Seq
Molecule type: RNA
Matrix: in vitro
Concentration: 365 nM
Setting: natural RNA segment, single round, ends assumed
Reference: no-protein control
Direction: higher = stronger binding
Residues (chain): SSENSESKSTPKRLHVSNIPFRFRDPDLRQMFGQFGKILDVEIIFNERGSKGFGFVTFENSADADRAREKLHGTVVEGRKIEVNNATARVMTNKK
`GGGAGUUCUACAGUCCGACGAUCGCUCACUUAGGCAGGAAUGGUCUUACCUUUUAAAAGCUUGUGGGAAACUGAAUUUGAAAUGACAAAAUGUCAAGUAUUAAAGCUGGUAUUUAAGAUGCUUGUAAAUAUUAUGGAAUUCUCGGGUGCCAA`: “RBNS enrichment (R)” 0.368.
`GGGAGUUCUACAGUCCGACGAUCAUUUCCACUGCUCGGGCGCUCCAGUGGCCCCGCUGCAGUGAGAGCUGCGCCUGGUUUCGCCGGACAGAGUUGGUGUUUGGAGCCCAGCCGCCCUCGGGCGCACGGCCUGCUGGAAUUCUCGGGUGCCAA`: “RBNS enrichment (R)” 0.55.
For `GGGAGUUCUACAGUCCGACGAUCUGCCGCCUGUGUGCUUUGCCCGUGUGCUCCUGCUGUCCCUCUGCCUGGGAUGGCCGCCCUGCUCUGAGACUUGGCCACUCUUGUCCUGGCCAAGUGUUCUGCUUGCAUUUUGGAAUUCUCGGGUGCCAA`, “RBNS enrichment (R)” read 0.662.
For `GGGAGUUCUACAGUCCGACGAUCGAUUUAAGCCUAGGGAUUUUAUUUUUAUAAAUACCAAAUCAUCAUUAGACUAAUCACUGGUGGAAAUUAAAUAUGGCAGUUAUGUUAGGUUUCCUAAUAUUUCAAAGGUUUGGAAUUCUCGGGUGCCAA`, “RBNS enrichment (R)” read 0.503.
For `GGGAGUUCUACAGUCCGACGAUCCGCGGUAUGUUGAGUGUUUCCACUACAGAGCAUCAUUUCCCAUGUGCCACUUGUAAAUGUUUUGCAGCCAGCACCUGAGGACUUCUUAUACAGUCAUAAAGCCACCUAGAUGGAAUUCUCGGGUGCCAA`, “RBNS enrichment (R)” read 0.603.
`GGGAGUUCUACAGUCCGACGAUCCGUCCAGGUGACUGACUGGUUGCUCCUCCCCCUUGGCAUGUUUGCAGAUCCUCUCCUCAGUCCGUGAAUCAGCACAGCUUGGAUUGAGCUUUACAACUAACAGCGCGCUAUGGAAUUCUCGGGUGCCAA`: “RBNS enrichment (R)” 0.339.
Under “RBNS enrichment (R)”, `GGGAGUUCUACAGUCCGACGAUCCCCUGCCCCCCUAGCUGAAGGGGUGUGCCAUACUACCUUAAAUGCAAACACUAGAUAUGCAAAACUGGAUUUUUUUAAUUUAUUUUUUAAAAGAGGGAGGUGUGGUAUAUUGGAAUUCUCGGGUGCCAA` is recorded as 0.614.
`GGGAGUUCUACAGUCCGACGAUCUCUCAUCCAGGGUUCCAUGAAAGUUACCCAGGGUCCUCAUGUCCUUCCUUAGAGCCUGAGUGGUGUGAGGUGACAGGUCUCUCUCUCCACUGCCCCUUUCUGGUUUAAAAUGGAAUUCUCGGGUGCCAA` — result for “RBNS enrichment (R)”: 0.325.

A few entries again (study 2):
Under “fitted relative affinity”, `TCACCTCTTTCACTGGTACTGTGCTAG` is recorded as 1.14 z-score.
Under “fitted relative affinity”, `GACGGGATCCTTTTCCTGACGTGCTAG` is recorded as 5.37 z-score.
Under “fitted relative affinity”, `GACGATATCATACTGGAGACGTGCTAG` is recorded as 0.376 z-score.
